Measured values pooled from the literature.
A part holds a random share of what one study measured.

Series 1
Target: Transcriptional repressor CTCF (CTCF, Homo sapiens, UniProt P49711, residues 1-727, full length assumed)
Chain of UniProt P49711 (whole entry, looked up): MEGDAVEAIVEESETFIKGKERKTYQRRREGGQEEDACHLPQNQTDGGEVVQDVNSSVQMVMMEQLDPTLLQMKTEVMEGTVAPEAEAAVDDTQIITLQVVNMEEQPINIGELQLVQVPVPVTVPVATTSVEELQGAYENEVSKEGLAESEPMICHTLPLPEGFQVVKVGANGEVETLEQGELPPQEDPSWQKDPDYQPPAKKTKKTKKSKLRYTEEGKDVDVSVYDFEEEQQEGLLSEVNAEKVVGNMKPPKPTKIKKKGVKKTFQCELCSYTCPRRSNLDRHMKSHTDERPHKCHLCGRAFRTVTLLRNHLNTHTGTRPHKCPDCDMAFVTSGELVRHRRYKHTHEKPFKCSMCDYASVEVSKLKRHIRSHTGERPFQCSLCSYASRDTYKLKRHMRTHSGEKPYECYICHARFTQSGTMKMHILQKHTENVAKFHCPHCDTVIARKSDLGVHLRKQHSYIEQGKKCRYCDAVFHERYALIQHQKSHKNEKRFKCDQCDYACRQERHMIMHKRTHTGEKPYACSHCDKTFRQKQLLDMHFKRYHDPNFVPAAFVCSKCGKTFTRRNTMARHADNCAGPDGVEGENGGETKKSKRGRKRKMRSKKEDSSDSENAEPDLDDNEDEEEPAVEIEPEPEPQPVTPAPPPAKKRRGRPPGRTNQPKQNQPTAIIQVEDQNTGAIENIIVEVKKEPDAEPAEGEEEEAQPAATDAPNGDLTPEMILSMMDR
Technique: protein-binding microarray
Molecule type: double-stranded DNA, one strand shown
Matrix: in vitro
Concentration: not given
Notes: k-mer, scored over probes, only values ≥0.25
Direction: higher = stronger binding
For `ATATTAAA`, the E-score was 0.404.
`CACAATTA` gave an E-score of 0.281.
For `CATTTTAC`, the E-score was 0.354.
`AGTCGACT` has an E-score of 0.255.
`CGCGCGCA` has an E-score of 0.377.
The E-score of `AGCGCGAT` is reported as 0.338.
The E-score of `AATTAAAC` is reported as 0.301.
`AATTGCAT` gave an E-score of 0.28.

Series 2
Target: Centromere-binding protein 1, full length, His-tagged (CBF1, Saccharomyces cerevisiae, UniProt P17106, residues 1-351)
Chain of UniProt P17106 (whole entry, looked up): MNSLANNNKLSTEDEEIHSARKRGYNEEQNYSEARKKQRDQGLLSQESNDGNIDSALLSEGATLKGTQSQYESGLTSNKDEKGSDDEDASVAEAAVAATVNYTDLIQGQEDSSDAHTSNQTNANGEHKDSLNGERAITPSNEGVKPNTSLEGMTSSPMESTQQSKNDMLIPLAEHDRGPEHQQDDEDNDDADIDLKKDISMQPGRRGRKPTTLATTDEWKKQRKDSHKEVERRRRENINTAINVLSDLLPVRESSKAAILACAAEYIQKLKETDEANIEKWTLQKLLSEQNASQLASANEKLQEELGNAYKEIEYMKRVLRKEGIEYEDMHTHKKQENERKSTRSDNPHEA
Technique: competition protein-binding microarray
Molecule type: double-stranded DNA, one strand shown
Matrix: in vitro
Concentration: 2 µM
Notes: whole 60-bp probe, lowest competitor level
With: Pho4 competitor, 0.05 µM
Direction: higher = stronger binding
With `AAAGCGGTAATTTGACTCGTGGGTGCAGATATCTATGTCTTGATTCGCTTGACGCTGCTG` the fluorescence intensity was 113 a.u.
The fluorescence intensity of `CTTTCCCGATCTTGGACGGTGGGTGTAGCACATTTGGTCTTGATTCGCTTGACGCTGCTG` is reported as 67.1 a.u.
For `AAGAGCGTAAGCTTGCTCGTGGTGAGAAGGGAACTAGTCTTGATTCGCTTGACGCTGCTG`, the fluorescence intensity was 68.9 a.u.
The fluorescence intensity of `GCTCATTCCACCTCACACCTGATTAACTAAAAGTTTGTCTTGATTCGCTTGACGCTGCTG` is reported as 211 a.u.
`CTAAGAAGATTGCTCAACGTGAAATACTTGCTGCTTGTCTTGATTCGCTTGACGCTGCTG` gave a fluorescence intensity of 82.9 a.u.
The fluorescence intensity of `GTCCGCTTACGTCTGTGCGTGCGGATTGTCCCACAAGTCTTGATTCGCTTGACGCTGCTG` is reported as 56.5 a.u.

Series 3
Target: RING finger protein unkempt homolog, zinc fingers 1-6, SBP tag (UNK, Homo sapiens, UniProt Q9C0B0, residues 30-357)
Chain of UniProt Q9C0B0 (30-357, looked up): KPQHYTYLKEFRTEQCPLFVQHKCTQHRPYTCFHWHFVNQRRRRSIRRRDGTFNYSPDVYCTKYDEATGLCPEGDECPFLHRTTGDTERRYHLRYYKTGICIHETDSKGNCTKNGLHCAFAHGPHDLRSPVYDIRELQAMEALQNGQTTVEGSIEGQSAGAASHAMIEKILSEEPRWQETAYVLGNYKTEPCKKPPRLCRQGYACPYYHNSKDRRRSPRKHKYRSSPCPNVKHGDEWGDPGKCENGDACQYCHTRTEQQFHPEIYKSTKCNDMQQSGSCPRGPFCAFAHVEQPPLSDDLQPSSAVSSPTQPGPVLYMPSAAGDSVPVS
Technique: RNA Bind-n-Seq
Molecule type: RNA
Matrix: in vitro
Concentration: 100 nM
Notes: RNA with constant flanks, vertebrate orthologous sites, ends assumed
Baseline: input RNA pool
Direction: higher = stronger binding
`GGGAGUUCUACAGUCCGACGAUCGAUUUGGACCCUGGAGCCGAACCAGGGAGCUAGCAAAAGUAAAGCAUACUUGUAAAAUUAUAGCCAUGUGCAGCUGUACAGCAACAGUAUUACCACUAGCAGCUGUGUUAAAGUAUUUAUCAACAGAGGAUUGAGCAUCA` gave a bound/input enrichment of 0.688 ratio.
The bound/input enrichment of `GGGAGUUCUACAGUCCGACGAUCCCUCUUAAUCCCAUCUCUUCAGUUUCAUAGUGCUGCAGUAUUACCUUCAAUUGUAUCUUUGGUGGACUUAUUUUUAAUUCUAGGGAAACUUCCAGUGUGGAUACUGUGAGCUAGAUGGAGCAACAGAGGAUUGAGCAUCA` is reported as 0.927 ratio.
`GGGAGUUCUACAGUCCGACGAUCCUCCUCUUAACCCCAUCUCAUCUGUUUCAUAGUGCUGAAAUUCCAUCUUCAGCCUUAUUUUUAGCGAACUUAUUCUAAUUCUAGAGAAACUUCCAGUGGAUACUGUGAGCUACAUGGAGACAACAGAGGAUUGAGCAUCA` has a bound/input enrichment of 1.54 ratio.
For `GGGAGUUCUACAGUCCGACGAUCCACAUCUGGUGAUAUUUGGCCUGGCCUUUCAGCUUAUGAUAAUAGUCCCAGAUCACCCCAUAGCCCAUCACCUAUUGCUACACCACCUAGUCAGAGUUCAUCUUGCUCUGAUGCCCCCAUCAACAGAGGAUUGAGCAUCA`, the bound/input enrichment was 1.03 ratio.
With `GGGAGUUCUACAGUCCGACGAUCUUUUAUUGAUCAGGUCUGUAAAUGUGCACUAAAACAAUCAGAGUUUAUUUAUGAACAGAGUAGUUUAUUUAAAGAGCAGGUCUUGUUCUCUUGGUACUGUGGUAUGCGCUCAUUCCUGUGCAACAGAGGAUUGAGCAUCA` the bound/input enrichment was 0.43 ratio.
`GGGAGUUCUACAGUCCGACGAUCGGGCCGCUUCGACGUGAAGAUCGAAGUUAAGAGCUGAUCGCGAGCACAGAUCUUUCCCACUAGCCAUUUAAGAAGUUAAAGAUACAAAAACCUACUAGUCUUGAACAAACUGUCAUACGUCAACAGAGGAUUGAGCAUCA` gave a bound/input enrichment of 1.76 ratio.
The bound/input enrichment of `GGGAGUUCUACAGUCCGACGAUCACUGUUGUUAAGCACUGUGUUCCAGACCGUGUCUGACUUAGUGUAACCUAGGAGAUUUUAUAGUUUUAUUUUAAUGAAACCCUGAUUGACGCACAGCAGUGGGGAGAACAGCAUCUUUUACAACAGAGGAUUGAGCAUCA` is reported as 2.03 ratio.
For `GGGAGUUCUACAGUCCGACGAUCCUCCCCCUUACCCAUAAAAUAGAACUUUUUAAAAUUGUGUUGCCACCACUUGUUUAAAAAAAUAAAAAAUUAAAAAAAAAAAAAAAAAAAAAAAAAACAACCUUAGCAAUAUUAGGAUAACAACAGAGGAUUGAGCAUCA`, the bound/input enrichment was 6.11 ratio.
`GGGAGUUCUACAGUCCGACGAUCUUGGGGCCAUACAUACGAAAGGUGUAUCAAAUGCAAAAUGAAACUGUCACUUAAAAUAGGGUUGUUACACUUAAGCUACAAAUAGGUUUCCUUAAACCAGAGCUGCACUGCCCUCGUCUGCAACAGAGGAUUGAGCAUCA` gave a bound/input enrichment of 0.355 ratio.

Other studies, line by line
For `PhoQ, residues 284 288 289 292 302 303 HSYLQF`, the fold induction was 22.3 (PhoP, residues 12 14 15 18 19 VQALL (Escherichia coli, UniProt P23836); Sort-seq, refers to: YFP reporter; E. coli; PhoQ-PhoP variant library, with: 10 µM Mg2+; baseline: high Mg2+ state, higher = stronger signaling).

For quick reference, copied from above (other studies, line by line):
For `PhoQ, residues 284 288 289 292 302 303 HSYLQF`, the fold induction was 22.3 (PhoP, residues 12 14 15 18 19 VQALL (Escherichia coli, UniProt P23836); Sort-seq, refers to: YFP reporter; E. coli; PhoQ-PhoP variant library, with: 10 µM Mg2+; baseline: high Mg2+ state, higher = stronger signaling).
